Measured values gathered from unrelated publications.
Parts stem from different laboratories: compare values within a part only. Values joined by “and” are separate records of one study, mostly repeats; a detail may differ.

Set 1
SMILES: Cc1ccc(O)c(C)c1-c1cnc2[nH]c(-c3cnc(N)nc3)cc2c1C#N
PKMYT1: Membrane-associated tyrosine- and threonine-specific cdc2-inhibitory kinase (PKMYT1, Homo sapiens, UniProt Q99640)
UniProt Q99640, sequence (whole entry, looked up): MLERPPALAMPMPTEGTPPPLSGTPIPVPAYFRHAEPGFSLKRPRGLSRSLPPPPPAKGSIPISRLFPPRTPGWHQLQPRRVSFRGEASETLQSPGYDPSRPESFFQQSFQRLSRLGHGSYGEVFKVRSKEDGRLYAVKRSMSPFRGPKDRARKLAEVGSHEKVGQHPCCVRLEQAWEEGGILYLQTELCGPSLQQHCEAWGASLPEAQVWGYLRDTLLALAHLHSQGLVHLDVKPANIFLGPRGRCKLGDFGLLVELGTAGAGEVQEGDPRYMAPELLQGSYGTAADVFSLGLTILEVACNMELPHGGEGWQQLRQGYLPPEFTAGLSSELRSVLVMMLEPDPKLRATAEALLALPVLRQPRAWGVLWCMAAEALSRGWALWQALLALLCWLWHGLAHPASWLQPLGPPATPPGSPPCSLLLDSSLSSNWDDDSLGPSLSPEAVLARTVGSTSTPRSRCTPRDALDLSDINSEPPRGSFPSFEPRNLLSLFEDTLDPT
The inhibition was 1.24% (MKN-1; cell proliferation; 41.15 nM).
For PKMYT1; 0.001372 µM: inhibition read 22.2%.
It gave 3.34% and 11.5% for inhibition (LN-229; cell proliferation; 13.72 nM).
The inhibition was 98.9% (HuCCT-1; cell proliferation; 10000 nM).
PKMYT1; 0.00015 µM — inhibition: -4.27% and -2.99%.
The inhibition was 87.4% (NCI-H1648; cell proliferation; 6976.74 nM).
PKMYT1; cell-free assay, TR-FRET; 0.1111 µM — inhibition: 98.9%.
For KLE; cell proliferation; 3333.33 nM: inhibition read 88.9%.
It gave -13.3% for inhibition (NCI-H1648; cell proliferation; 9.57 nM).
It gave -5.71% and -3.43% for inhibition (LN-229; cell proliferation; 4.572 nM).
HCC1569; automated capillary immunoblot, refers to: CDK1 phospho-Thr14; 1.37 nM — inhibition: 10.9%.
The inhibition was 2.42% and -0.318% (LN-229; cell proliferation; 0.5081 nM).
The inhibition was -1.24% (KLE; cell proliferation; 4.572 nM).
PKMYT1; 0.0001524 µM — inhibition: 1.44% and -0.342%.
It gave 20.7% for inhibition (HCC1569; automated capillary immunoblot, refers to: CDK1 phospho-Thr14; 0.05 nM).
The inhibition was 91.3% (NCI-H1648; cell proliferation; 20930 nM).
For NCI-H1648; cell proliferation; 3.19 nM: inhibition read -8.13%.
It gave 3.56% for inhibition (HCC1806; cell proliferation; 13.72 nM).

Set 2
Compound: COc1cc(C(=O)OCCCN2CCCN(CCCOC(=O)c3cc(OC)c(OC)c(OCc4ccc([N+](=O)[O-])cc4)c3)CC2)cc(OC)c1OC
Route: intrathecal
For male mouse, formalin pain; 10 nmol, 0 to 5 min: licking duration read 214 s and 191 s and 158 s and 199 s.
For female mouse, formalin pain; 100 nmol, 0 to 10 min: licking duration read 162 s and 191 s and 180 s and 193 s.
male mouse, formalin pain; 100 nmol, 0 to 5 min — licking duration: 192 s and 148 s and 176 s and 144 s.
The licking duration was 60.8 s and 58 s and 65.3 s and 65 s (male mouse, formalin pain; 10 nmol, 25 to 30 min).
For female mouse, formalin pain; 1 nmol, 0 to 10 min: licking duration read 196 s and 268 s and 207 s and 203 s.
The licking duration was 181 s and 177 s and 164 s and 213 s (female mouse, formalin pain; 10 nmol, 0 to 5 min).

Set 3
SMILES: CCN1C(=O)C(O)(C(=O)O)Oc2cc(F)ccc21 (stereo not drawn)
Alopecurus japonicus; fresh weight; 150 g ai/ha, pre-emergence treatment — inhibition: 44.5% and 45.3% and 42.5%.
For Arabidopsis thaliana; root length; Col-0, seedlings; 3.125 µg/mL; relative to: water control: inhibition read 10.8%.
The inhibition was 15.3% (Arabidopsis thaliana; hypocotyl length; Col-0; 6.25 µg/mL, 7 days, seed germination, dark).
The inhibition was 29.7% (Arabidopsis thaliana; root length; Col-0, seedlings; 12.5 µg/mL).
For Arabidopsis thaliana; hypocotyl length; Col-0; 50.0 µg/mL, 7 days, seed germination, dark: inhibition read 32.4%.
It gave 8.2% for inhibition (Arabidopsis thaliana; hypocotyl length; Col-0; 3.125 µg/mL, 7 days, seed germination, dark).
The inhibition was 32.4% (Arabidopsis thaliana; hypocotyl length; Col-0, seedlings; 50 µg/mL).
It gave 13.7% and 12.5% for inhibition (Abutilon theophrasti; fresh weight; 150 g ai/ha, pre-emergence treatment).
It gave 29.7% for inhibition (Arabidopsis thaliana; root length; Col-0; 12.5 µg/mL, 7 days, seed germination, dark).
For Arabidopsis thaliana; root length; Col-0, seedlings; 100 µg/mL; relative to: water control: inhibition read 72.4%.
Eclipta prostrata; fresh weight; 150 g ai/ha, post-emergence treatment — inhibition: 45% and 44.4% and 48.7%.
The inhibition was 22.3% and 22% and 23.6% (Oryza sativa; fresh weight; soil surface spray, 150 g ai/ha, 21 days, pre-emergence crop safety).
Arabidopsis thaliana; hypocotyl length; Col-0, seedlings; 6.25 µg/mL — inhibition: 15.3%.
Arabidopsis thaliana; root length; Col-0; 3.13 µg/mL, 7 days, seed germination, dark — inhibition: 10.8%.
The inhibition was 8.16% (Arabidopsis thaliana; hypocotyl length; Col-0, seedlings; 3.125 µg/mL).
For Arabidopsis thaliana; hypocotyl length; Col-0, seedlings; 25 µg/mL: inhibition read 28.4%.

Set 4
SMILES: CCN1/C(=C/C=C2\CCCC(/C=C/C3=[N+](CC)c4ccccc4C3(C)C)=C2NCCCCCCCCN2CCC(Nc3nc4ccccc4n3Cc3ccc(F)cc3)CC2)C(C)(C)c2ccccc21
Cell line: U-87 MG
Concentration: concentration not given
Relative to: DMSO
It gave -1.13 for “log2 fold change” (refers to: JPT1 mRNA).
The “log2 fold change” was -1.31 (refers to: ARMCX4 mRNA).
It gave -3.09 for “log2 fold change” (refers to: RGCC mRNA).
It gave -1.67 for “log2 fold change” (refers to: TPX2 mRNA).
refers to: ZNF267 mRNA — “log2 fold change”: 1.48.
It gave -2.17 for “log2 fold change” (refers to: AURKB mRNA).
refers to: WNT3 mRNA — “log2 fold change”: -1.08.
For refers to: C18orf54 mRNA: “log2 fold change” read -2.03.
refers to: FOSB mRNA — “log2 fold change”: -2.24.
For refers to: CKLF mRNA: “log2 fold change” read -1.22.
For refers to: UBTD2 mRNA: “log2 fold change” read 1.41.

Repeated from above (set 2):
For male mouse, formalin pain; 10 nmol, 0 to 5 min: licking duration read 214 s and 191 s and 158 s and 199 s.
For female mouse, formalin pain; 100 nmol, 0 to 10 min: licking duration read 162 s and 191 s and 180 s and 193 s.
male mouse, formalin pain; 100 nmol, 0 to 5 min — licking duration: 192 s and 148 s and 176 s and 144 s.
The licking duration was 60.8 s and 58 s and 65.3 s and 65 s (male mouse, formalin pain; 10 nmol, 25 to 30 min).
